Assay results collected from several papers.
Numbered parts are unrelated; each lists some results of a single study. Positions count from the first letter of the parent shown.

Block 1
Target: RING finger protein unkempt homolog, zinc fingers 1-6, GST-SBP tag (UNK, Homo sapiens, UniProt Q9C0B0, residues 30-357)
Method: RNA Bind-n-Seq
Form: RNA
Medium: in vitro
Concentration: not given
Setting: RNA with constant flanks, human-mouse chimeric sites, ends assumed
Baseline: input RNA pool
Direction: higher = stronger binding
Construct (chain): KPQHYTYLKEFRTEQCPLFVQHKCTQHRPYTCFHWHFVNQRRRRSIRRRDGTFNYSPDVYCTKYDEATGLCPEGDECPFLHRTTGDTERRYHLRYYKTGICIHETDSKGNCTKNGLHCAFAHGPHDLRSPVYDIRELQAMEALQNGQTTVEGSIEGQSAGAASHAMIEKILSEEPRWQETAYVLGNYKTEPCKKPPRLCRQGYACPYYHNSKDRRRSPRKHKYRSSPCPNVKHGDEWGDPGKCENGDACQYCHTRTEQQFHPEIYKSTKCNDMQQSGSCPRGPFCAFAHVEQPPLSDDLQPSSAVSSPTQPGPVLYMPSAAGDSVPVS
| Sequence | bound/input enrichment |
| --- | --- |
| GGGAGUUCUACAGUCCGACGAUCUGACAAGCACGAGCAUCGGCCAUGCCUUUCCUUGACAUACAGAAAAAGCUGGGCAUCAGCCUGGACCGGCACUUUAUGUUCCUAAGCGCAGAACAGCCCUAUAAGAACGCCGCUCGGUGCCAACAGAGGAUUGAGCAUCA | 0.101 ratio |
| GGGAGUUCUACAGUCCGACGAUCCACACACUCUUCUGCGGGACCCUCAUCUUGCAGGCCCGAGCCUACGUGGGACCGCACGUGCUAGCAGUGGUGACCCGCACAGGGUUCUGCACGGCAAAAGGGGGCCUGGUGAGCUCCAUCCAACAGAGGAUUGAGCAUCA | 0.0782 ratio |
| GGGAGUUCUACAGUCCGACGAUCGAAUCCUACUCAGGCGGUCCCACAACACUGAAUGCAACAGCAGCAGCAUCUUAGUCACAGUAGGGUAGUUUUGGGGCUCUGUGGCCAGGGUUUUAUUCACAUGCAGGUUUGGAAAAUGUACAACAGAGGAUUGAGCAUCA | 1 ratio |
| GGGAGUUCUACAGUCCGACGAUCAAUUUCCUGUCAUACUUUUUAGACAUUCACAUCAGACUUACAGAGCAUUGGGCCUCUUUCUAGGUUUGUGUUAUUUCUCAGCUAUGGGGGUAUGAUUAUGAGAACACUGCUUAACUAAUGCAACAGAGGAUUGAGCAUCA | 0.6 ratio |
| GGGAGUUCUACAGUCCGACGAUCCCUCCCCCGGGCCACCCACCCCUCCCGGCUCCCCGCCGAGAUCCAGGUUUCUUCUUAUUUCAUAGCAAAUAAGAAAAAUGUUCUACGCACAUUUUGUCCUCAGUAAACGAGGGCCUCUGGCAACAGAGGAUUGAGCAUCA | 1.38 ratio |
| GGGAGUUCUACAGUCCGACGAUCUCAAGGGGGCACUGCAGAGCCAUGCCUUUCCUUGACAUCCAGAAAAGGCUGGGCAUCAGCCUGGACCGGCACUUUAUGUUCCUAAGCGCAGAACAGCCCUAUAAGAACGCCGCUCGGUGCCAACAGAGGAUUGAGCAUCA | 0.0463 ratio |
| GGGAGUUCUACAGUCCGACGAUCACUCAGAGAUCCACCUCCCAAAGUGCUCUGGAGCUCUGUGUGGCCACCACACCUAACUUGAUGGAUAUAUAUUUUUUUUAAUAUGAAUCUUCCUGUUCGUCCAGGGAGCAAGAACGGGUUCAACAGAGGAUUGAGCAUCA | 0.517 ratio |
| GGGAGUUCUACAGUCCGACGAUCUCUUUAAAAAAAAAAUUACCUUUUCUGCAUAUUAUAGCCCUCCCAUAGAUCCACGUUCAAGCUCAAAGAGCAAAGGCUUUGCACGGAUCUGAUGAUGCUGAUGAAGAAAGAUUUCUGAGACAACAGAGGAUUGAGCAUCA | 1.08 ratio |
| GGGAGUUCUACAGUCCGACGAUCUGGCGCCUGCGCUCCCCGUUUUUAAAUGUAUUUUUAUUUUUAUAAGAUACAUGUAUUUACAAUUGAGCUUUUGUUACAUAAUGCUGAAAUGCUACUGGAGAUUAUGAAAAAUGUUUCAAUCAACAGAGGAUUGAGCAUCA | 0.141 ratio |
| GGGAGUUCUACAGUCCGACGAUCAAAUCGUGUGUGUCCAAUAUUGAAAGUGCUUUAUCUACACUCCAAUAUGUAAGCAGUAUAGUAGUUUCUUUAGAGAAUAGGUCUGCCAUUGUAAAGUACAAUGCAAGCUUAGUCACUCCACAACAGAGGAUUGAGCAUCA | 3.89 ratio |
| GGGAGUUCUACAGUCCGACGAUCAAACAUCUGUCUUUAAGCAUUCCAAGCGAGAAUGCUGAAAUAGUCAUUGUUGCCCAUGUGCCUUCUGACUGAGCUUUAAUGCUGUUCCAUGUUACAUCUUUCCUUCACUCCAGAAUUGUUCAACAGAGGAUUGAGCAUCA | 0.184 ratio |

Block 2
Target: ABI1, truncated, D143A, DHFR fusion (Arabidopsis thaliana)
Method: DHFR PCA, deep sequencing
Medium: yeast
Setting: methotrexate growth selection, single substitutions
Together with: (+)-ABA 0.11 µM
Baseline: wild-type fitted maximum
Direction: higher = stronger binding
Parent: PYL1, truncated, DHFR fusion (Arabidopsis thaliana); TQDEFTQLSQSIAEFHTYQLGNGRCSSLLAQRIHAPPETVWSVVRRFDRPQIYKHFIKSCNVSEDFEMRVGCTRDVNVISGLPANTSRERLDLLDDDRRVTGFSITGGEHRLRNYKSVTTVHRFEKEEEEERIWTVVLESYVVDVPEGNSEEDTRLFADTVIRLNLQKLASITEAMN
| Change | relative binding score [%] |
| --- | --- |
| L112K | -0.356 |
| F47E | -3.3 |
| V76N | -7.77 |
| D159S | 0.644 |
| E139T | 27.4 |
| R69S | 19.5 |
| E131P | 63.2 |
| P37R | -2.45 |
| S9L | 32.2 |
| R46L | -1.49 |
| T135Q | -3.42 |
| L29A | 0.0642 |

Block 3
Target: RNA binding protein fox-1 homolog 2, RRM domain, GST-SBP tag (RBFOX2, Homo sapiens, UniProt O43251-10, residues 100-194)
Method: RNA Bind-n-Seq
Form: RNA
Medium: in vitro
Concentration: 365 nM
Setting: natural RNA segment, single round, ends assumed
Baseline: no-protein control
Direction: higher = stronger binding
Construct (chain): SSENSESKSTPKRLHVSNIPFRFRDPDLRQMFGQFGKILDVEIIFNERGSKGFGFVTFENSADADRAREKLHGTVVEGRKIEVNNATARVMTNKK
| Sequence | RBNS enrichment (R) |
| --- | --- |
| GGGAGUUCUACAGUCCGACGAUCCUCAACUUGAAUCAUGACAGCCCAUCGCUCAGUCUCACCCUAAACUCAUGGAGCUUGUUUCAGCUCCUCACUUCUUGACUGUAUUUGUACUAUGUUGAAAAAAUAUCCUGUGGAAUUCUCGGGUGCCAA | 0.414 |
| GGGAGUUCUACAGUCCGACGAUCAUAAACCCACCUAAGUGAAAUGGCCAUCCUCUAAACUGGGUACCUCACUGCACAGCUUCUAGGUAGCCUUCCAACUUAAUCUAACUUGAGCCUCACAGUAACCCUGUAAAUGGAAUUCUCGGGUGCCAA | 0.287 |
| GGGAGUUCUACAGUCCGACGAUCAACGUUUCUGGUUUAGAGAAUACUCAGCCAUCCUGGAAACUAGCAAUAUUUAUUUUGCCUCAUUUACUUUAUUUUCAGUUUUAGAUGAGGUGAAGGUUUUCUUUCAGUUAUGGAAUUCUCGGGUGCCAA | 0.491 |
| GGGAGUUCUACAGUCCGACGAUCUAAAGACAAGAGAAAGCCUACGUUUCAAUAUGUGAUGCUCAUGUGUGUUUGUAGUGUGAGCUCUUGUUUUUGAAAUGAUUGCUUCAGUCUUUGCCUUUGUUUGCACUGUGUGGAAUUCUCGGGUGCCAA | 1.64 |
| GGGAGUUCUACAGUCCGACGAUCAUUAUUCUUAGAAUUGAGAUUGCUACACGGAGCAGUCCUUGACGAUCGUGUUUCUGACGUUUCUCUUCCUUGCCUGGACUGCCUUUGACAAGGCAGAAAUGAACAUGAAAUGGAAUUCUCGGGUGCCAA | 0.593 |
| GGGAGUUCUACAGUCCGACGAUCUUUCUCAACCUCAUUUGAACUAAAAAACAAGACCAUGAACAUUAAAAGAUUGCAUUUACCUUUUCAGUGGUAGAAAAUCAUUUAGUUCUUUGCUAUAAAUGAUUCAGAAUUGGAAUUCUCGGGUGCCAA | 1.17 |
| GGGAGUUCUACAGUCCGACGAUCCUGUUUGCCCAAUGGAUCAUUUGUAUGUUAACCACUGUAUGUAACCAACCCUUAUCUGGCAACAUAAUUGCAGCACAAUAAUGAUUUGCAUGAUACCUUGAAAUUGGGGGUGGAAUUCUCGGGUGCCAA | 22 |
| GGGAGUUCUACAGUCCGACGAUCAUUUCAAAGCUGGUUUGCUUUUUUAAAGGACUUUAUCCAAGCAGAGAACUAUACUAUUUUUCCUAUGGGACAAUGGACUUUCAGGACCUCACUUCAUUUUCAGAGUUAAUUGGAAUUCUCGGGUGCCAA | 0.346 |
| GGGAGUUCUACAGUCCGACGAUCGCAGUUACUUCAGGUUGAAGUUGCCUUGAUCGCCUGCCCCUCAUCAGGGCUUUUGCUUUUCUUCAAAGUACUGAGGAUCCAACCCAGUGCCUUACACGCCAGGCAAGUGUUGGAAUUCUCGGGUGCCAA | 0.361 |
| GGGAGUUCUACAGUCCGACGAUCAGCAUUGUGUAAAUAAAUCUGAAUGUGUUUAACUUUGUACUGGUAAUUUUCUGUAUAUUUGGAAUAUUUGGGUUAAAAAUAAAACAGACUGGACUUUGUUACCUGACCUAUGGAAUUCUCGGGUGCCAA | 0.773 |
| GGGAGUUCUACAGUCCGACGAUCAUGAGAACUUACCAGCAGAAAUCCUUGUUCCUAAGCUACAGAAUGACCAAAAGCUGUCAAGUCCUUAAUGUUUAGAAACUCCUUAAAAUGUAUAGUAUUUUAGAACAACAUGGAAUUCUCGGGUGCCAA | 0.576 |
| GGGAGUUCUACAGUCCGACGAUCAGACUGAAUUGGACUAAACCCGUCCUCUGUUCCCAGCACGUUUCUCAUAUAGCCCUCAGUCACUGAGGGAGUCCCCCGCAGGAUUGGAGAGGCACAUUCCCUUGGGACAGUGGAAUUCUCGGGUGCCAA | 0.534 |

Further values, each from its own experiment
| Substance | target | assay | system | conditions | scale | measurement | result |
| --- | --- | --- | --- | --- | --- | --- | --- |
| PhoQ, residues 284 288 289 292 302 303 SIHLQL | PhoP, residues 12 14 15 18 19 NQFFI (Escherichia coli, UniProt P23836) | Sort-seq, measured: YFP reporter | E. coli | PhoQ-PhoP variant library, together with: 10 µM Mg2+ | baseline: high Mg2+ state, higher = stronger signaling | fold induction | 15.6 |

Repeated from above (block 2):
| Change | relative binding score [%] |
| --- | --- |
| V76N | -7.77 |
| D159S | 0.644 |
